Measurements pooled from the literature.
A part holds a random share of what one study measured.
UniProt Q8L7G0, sequence (whole entry, looked up): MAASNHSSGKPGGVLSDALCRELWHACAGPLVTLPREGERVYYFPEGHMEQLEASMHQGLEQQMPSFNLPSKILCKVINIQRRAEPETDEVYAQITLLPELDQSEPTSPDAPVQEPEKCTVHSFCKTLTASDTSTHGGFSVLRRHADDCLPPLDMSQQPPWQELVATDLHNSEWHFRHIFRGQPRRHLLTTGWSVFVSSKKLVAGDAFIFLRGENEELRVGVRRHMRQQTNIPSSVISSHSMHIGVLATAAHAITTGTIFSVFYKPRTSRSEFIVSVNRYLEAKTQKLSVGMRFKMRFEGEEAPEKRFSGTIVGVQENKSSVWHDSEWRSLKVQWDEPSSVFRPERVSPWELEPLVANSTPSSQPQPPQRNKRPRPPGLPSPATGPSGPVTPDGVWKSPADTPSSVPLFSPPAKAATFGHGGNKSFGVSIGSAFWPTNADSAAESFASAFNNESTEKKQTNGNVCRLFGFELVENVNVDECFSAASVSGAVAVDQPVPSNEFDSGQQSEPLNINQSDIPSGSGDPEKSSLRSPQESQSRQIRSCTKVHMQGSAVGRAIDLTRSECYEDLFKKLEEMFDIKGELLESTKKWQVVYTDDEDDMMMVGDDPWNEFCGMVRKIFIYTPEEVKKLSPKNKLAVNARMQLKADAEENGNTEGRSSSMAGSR
UniProt Q8H174, sequence (whole entry, looked up): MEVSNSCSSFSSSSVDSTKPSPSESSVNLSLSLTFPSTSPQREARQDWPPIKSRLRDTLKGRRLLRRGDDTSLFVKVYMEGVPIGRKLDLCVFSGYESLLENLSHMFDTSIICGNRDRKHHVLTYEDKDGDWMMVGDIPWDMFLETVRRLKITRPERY
UniProt O23661, sequence (whole entry, looked up): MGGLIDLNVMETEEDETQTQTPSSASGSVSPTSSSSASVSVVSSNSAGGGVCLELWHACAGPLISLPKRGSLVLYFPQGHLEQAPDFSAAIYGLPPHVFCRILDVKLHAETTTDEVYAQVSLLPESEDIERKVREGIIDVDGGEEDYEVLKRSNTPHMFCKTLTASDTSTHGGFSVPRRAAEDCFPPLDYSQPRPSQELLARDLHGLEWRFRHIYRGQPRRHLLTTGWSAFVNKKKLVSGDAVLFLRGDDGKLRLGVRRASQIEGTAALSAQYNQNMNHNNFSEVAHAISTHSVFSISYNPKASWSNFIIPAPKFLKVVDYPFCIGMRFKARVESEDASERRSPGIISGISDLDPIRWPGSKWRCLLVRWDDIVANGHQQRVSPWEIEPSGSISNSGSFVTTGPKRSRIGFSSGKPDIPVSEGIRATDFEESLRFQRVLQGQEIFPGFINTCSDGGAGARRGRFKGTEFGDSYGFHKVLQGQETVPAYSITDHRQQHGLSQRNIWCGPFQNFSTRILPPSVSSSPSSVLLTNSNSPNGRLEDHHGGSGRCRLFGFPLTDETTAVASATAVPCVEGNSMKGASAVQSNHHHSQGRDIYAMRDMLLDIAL
UniProt Q9XED8, sequence (whole entry, looked up): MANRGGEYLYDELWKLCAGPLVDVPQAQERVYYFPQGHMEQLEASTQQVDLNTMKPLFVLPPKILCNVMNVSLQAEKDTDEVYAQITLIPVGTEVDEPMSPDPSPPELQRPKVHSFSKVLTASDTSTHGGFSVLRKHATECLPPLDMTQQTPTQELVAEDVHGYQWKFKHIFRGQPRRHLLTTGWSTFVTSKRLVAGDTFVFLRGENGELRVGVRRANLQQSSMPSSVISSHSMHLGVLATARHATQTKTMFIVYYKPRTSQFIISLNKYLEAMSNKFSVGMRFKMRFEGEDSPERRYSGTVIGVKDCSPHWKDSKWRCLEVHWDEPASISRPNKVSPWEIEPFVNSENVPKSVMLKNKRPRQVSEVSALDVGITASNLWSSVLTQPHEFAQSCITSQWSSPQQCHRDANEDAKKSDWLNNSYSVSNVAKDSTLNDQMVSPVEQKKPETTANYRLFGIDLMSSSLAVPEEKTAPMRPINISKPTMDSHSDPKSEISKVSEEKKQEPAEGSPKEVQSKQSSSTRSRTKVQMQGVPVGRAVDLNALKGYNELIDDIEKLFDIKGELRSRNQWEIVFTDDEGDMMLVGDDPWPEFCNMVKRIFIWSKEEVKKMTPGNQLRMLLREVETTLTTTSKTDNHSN
UniProt Q8RYC8, sequence (whole entry, looked up): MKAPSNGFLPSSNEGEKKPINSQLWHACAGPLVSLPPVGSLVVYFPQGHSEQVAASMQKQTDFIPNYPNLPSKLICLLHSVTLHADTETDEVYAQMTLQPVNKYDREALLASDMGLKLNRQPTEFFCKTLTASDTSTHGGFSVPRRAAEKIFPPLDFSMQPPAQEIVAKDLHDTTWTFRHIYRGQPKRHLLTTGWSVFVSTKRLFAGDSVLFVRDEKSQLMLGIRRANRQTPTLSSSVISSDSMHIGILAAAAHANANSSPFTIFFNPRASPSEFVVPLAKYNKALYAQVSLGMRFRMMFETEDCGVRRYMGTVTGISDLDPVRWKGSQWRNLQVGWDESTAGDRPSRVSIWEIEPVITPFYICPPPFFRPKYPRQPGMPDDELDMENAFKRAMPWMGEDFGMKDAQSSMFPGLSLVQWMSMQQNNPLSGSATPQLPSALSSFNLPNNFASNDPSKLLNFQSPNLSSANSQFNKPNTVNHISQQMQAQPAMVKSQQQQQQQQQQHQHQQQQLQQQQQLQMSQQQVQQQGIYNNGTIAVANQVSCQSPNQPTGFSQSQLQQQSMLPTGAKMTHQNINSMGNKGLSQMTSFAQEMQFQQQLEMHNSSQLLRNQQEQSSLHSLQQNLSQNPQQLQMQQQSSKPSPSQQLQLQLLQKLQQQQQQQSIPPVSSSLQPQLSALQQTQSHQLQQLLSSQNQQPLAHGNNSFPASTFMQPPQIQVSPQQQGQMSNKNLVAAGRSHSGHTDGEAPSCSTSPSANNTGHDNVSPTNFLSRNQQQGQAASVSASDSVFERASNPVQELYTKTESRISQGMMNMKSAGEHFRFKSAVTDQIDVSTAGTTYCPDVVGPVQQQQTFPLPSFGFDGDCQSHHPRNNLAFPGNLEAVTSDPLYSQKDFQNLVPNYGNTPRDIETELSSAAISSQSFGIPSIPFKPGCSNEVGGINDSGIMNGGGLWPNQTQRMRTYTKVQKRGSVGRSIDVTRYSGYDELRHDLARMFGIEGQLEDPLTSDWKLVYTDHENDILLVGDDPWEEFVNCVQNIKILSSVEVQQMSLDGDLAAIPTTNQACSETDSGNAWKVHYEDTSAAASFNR
UniProt Q93YR9, sequence (whole entry, looked up): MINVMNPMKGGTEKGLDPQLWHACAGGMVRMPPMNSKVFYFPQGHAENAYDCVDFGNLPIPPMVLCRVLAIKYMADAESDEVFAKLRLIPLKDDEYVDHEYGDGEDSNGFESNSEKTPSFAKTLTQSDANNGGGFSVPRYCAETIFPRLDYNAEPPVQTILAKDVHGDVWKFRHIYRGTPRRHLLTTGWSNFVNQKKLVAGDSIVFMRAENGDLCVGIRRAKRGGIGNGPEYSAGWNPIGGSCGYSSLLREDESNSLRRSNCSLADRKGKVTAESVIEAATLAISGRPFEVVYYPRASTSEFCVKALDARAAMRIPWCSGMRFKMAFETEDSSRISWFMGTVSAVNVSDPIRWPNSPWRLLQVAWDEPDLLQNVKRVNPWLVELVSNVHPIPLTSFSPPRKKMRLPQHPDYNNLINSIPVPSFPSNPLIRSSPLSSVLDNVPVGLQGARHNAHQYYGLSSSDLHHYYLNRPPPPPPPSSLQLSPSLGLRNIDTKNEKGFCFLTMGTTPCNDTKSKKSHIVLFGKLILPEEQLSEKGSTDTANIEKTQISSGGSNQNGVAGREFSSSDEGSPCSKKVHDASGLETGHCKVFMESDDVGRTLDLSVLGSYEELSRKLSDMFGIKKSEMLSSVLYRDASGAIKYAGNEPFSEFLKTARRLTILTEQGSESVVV
UniProt Q9C5X0, sequence (whole entry, looked up): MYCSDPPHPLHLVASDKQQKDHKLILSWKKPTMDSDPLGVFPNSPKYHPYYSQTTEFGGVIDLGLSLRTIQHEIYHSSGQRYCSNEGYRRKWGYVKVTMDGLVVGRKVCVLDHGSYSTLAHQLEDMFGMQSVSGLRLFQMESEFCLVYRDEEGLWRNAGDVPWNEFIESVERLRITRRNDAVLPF
UniProt Q8RYC6, sequence (whole entry, looked up): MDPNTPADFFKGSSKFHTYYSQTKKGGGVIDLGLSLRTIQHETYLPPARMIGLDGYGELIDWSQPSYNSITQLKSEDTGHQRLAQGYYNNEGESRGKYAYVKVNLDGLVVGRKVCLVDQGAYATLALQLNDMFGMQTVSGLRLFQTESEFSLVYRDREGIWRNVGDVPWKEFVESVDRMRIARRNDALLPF

Set 1
Target: Histone acetyltransferase KAT6A, both winged helices, GST fusion (KAT6A, Homo sapiens, UniProt Q92794, residues 1-181)
Method: protein binding microarray
Form: double-stranded DNA, one strand shown
Medium: in vitro
Tested at: not given
Notes: 8-mer, flanks averaged, mean of 2 arrays, mostly near background
Reference: not given
Direction: higher = stronger binding
Quantity: E-score
Target sequence (chain): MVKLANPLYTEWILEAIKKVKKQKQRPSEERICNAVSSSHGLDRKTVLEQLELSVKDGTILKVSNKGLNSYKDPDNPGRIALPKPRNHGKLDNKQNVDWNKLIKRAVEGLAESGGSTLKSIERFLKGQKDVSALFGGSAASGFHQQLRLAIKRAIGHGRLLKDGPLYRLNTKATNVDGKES
ACCGGTAA: 0.262
ATACTAAA: -0.0253
GTGAGGGA: -0.123
AGCGGGGA: 0.182
AGTTGGTA: -0.262
AAACGCCT: -0.0757
ATGACAAG: -0.091
ATAAAATC: 0.0211
TACGGGGA: 0.191
CGTTCCAA: -0.179
GTGTCTCA: -0.0735
GACATGTC: 0.143
CTCACATC: -0.0804
ATACTTGC: 0.00285
AAGCAACG: 0.00068
CAGATACA: 0.122
CATTGAGG: -0.166
CGACCCAC: -0.0557

Set 2
Target: RNA binding protein fox-1 homolog 2, RRM domain, GST-SBP tag (RBFOX2, Homo sapiens, UniProt O43251-10, residues 100-194)
Method: RNA Bind-n-Seq
Form: RNA
Medium: in vitro
Tested at: 365 nM
Notes: natural RNA segment, single round, ends assumed
Reference: no-protein control
Direction: higher = stronger binding
Quantity: RBNS enrichment (R)
Constant ends, left off below: GGGAGUUCUACAGUCCGACGAUC … UGGAAUUCUCGGGUGCCAA
Residues (chain): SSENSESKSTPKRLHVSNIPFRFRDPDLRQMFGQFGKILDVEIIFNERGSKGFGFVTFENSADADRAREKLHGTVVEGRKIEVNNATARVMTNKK
UCUGAAUGGAUGUGUUACCAGAAGCAUUUUAGCUACAGCCUAGAAAAUGACAUUGUGAACACAGUAUUAUUGUGGGAAGAGGGCAUUUGGAUUUCUCAAUGUUUGUGAUA: 2.74
CAAAGCAAAAGCCCAGUUGGUCAAAGCACAAAAGGCAGCAGCCGCAGCAGCUGCUGCAGCUGCUGCAGCCGCCUCAGUUGGAGGGACCAUUCCGGGACCUGGCCCUGGGG: 0.348
CCUCUGUCUUGUCAGUGGAGGUGCCUGGGUGGGGAGCAGGUCUCAGGCCUCUUGUCCUCUCCCCAGUGGCUCCAGGCCUCACUAGUGGCAAGGGCAGGAUGAGGCUGCAC: 0.41
AUAGCUAAAGCCUGAAGAUAUCUUCAGAAAACACAUCUGGGAUGUAUCCCAUGUUCCCAGAAAGCUGUGUACUAGUUAAAAACUCUUUUGUCAAGGGGUAGGGAUAGUGG: 0.309
CACUGCAACCUCUGCCUCCUGGGUUCAAGUGAUUCUCCAGCCUCAGCCUCCCGAGUAGCUGGGAUUAUGGGCGCCCACCACCAUGCCCAGCUAAUUUUUGUAUUUUUUUU: 1.01
CUGGGCCCUUGAGAGGGGCUCUGUGGCUGCAGAGCUGUUUUUACCCUGACAACUGGGUUUGUCCUCCCUACUCCCACCCCAAGUGGUCAAUAAGUCUUAUUUGCAAAAGC: 0.63
UUUUGUACAGCUUUGUAAAUUCUUAACAUUUUUAUAUUGCCAUGUUUAUUUUGUUUGGGUAAUUUGGUUCAUUAAGUACAUAGCUAAGGUAAUGAACAUCUUUUUCAGUA: 1.29
AGAAGAGGGUUUCCACGAGCGGGAGGGUCGUCCGUACUGCCGGCGGGACUUCCUGCAGCUGUUCGCCCCACGCUGCCAGGGCUGCCAAGGCCCUAUUUUGGAUAACUACA: 0.398
AGGGUUCAUCUUUGCUUUAAUUUUGGCAAAAUGUUAAGCAUUUAUUUUGAGCUAAAAAUAAAAGUUAAUUUCAUACUAUAUAGAUUUUCUUUUUUAUCUUGUAUGUCCCC: 0.561
UCUGAAUUAAAAUUUGAAACUCUGACCACACUCAGUACCCUACUGUCCCUAUAACUGGGGUUAUCUGACCAUCCAUCUCCCUUCUUUGUUCUGCUUUCUGUUCGGGGUGC: 0.765
UAUAACACACUGGAGAGCACUCUGUGAUGGGGCUGCACACGUGCAGCCGUGCAGCACUCGGGAUGUCUGGUUCAGCAGACCCAGGCUUUAUUGGCCAAAGCAUUCUUACA: 0.349
AAUAGACUGUCUCAUCAACCCUCCUGUGUCCUCUGAAGCAAUCUCAGUUUUUAUUAACCACCUCUUCUGUGUUUCUGGUAGCUAUUUAACCUGUAUUUAAUCUGUACUUC: 0.553

Set 3
Sequence: B1 (IAA30)
Method: two-hybrid
Notes: weak activation fusion
Reference: out of 4 tests
Direction: higher = firmer interaction
Quantity: positive tests
B1: IAA30 (Arabidopsis thaliana, UniProt Q9M1R4); chain MGRGRSSSSSSIESSCKSNPFGVSSSNTRNLSTDLRLGLSFGSSSGQYYNGGDNHEYDGVGAAEEMMIMEEEEQNECNSVGSFYVKVNMEGVPIGRKIDLLSLNGYHDLITTLDYMFNASILWAEEEDMCSEKSHVLTYADKEGDWMMVGDVPWEMFLSSVRRLKISRAYHY
ARF5 788-902 (Arabidopsis thaliana, UniProt P93024): 2
ARF1 538-665 (Arabidopsis thaliana, UniProt Q8L7G0): 1
ETT (Arabidopsis thaliana, UniProt O23661): 0
IAA31 (Arabidopsis thaliana, UniProt Q8H174): 1
ARF9 519-638 (Arabidopsis thaliana, UniProt Q9XED8): 2
IAA34 (Arabidopsis thaliana, UniProt Q9C5X0): 2
ARF16 570-670 (Arabidopsis thaliana, UniProt Q93YR9): 0
IAA32 (Arabidopsis thaliana, UniProt Q8RYC6): 1
ARF19 948-1086 (Arabidopsis thaliana, UniProt Q8RYC8): 3

Set 4
Target: Hepatocyte nuclear factor 3-alpha (Foxa1, Mus musculus, UniProt P35582, residues 1-468, full length assumed)
UniProt P35582, sequence (whole entry, looked up): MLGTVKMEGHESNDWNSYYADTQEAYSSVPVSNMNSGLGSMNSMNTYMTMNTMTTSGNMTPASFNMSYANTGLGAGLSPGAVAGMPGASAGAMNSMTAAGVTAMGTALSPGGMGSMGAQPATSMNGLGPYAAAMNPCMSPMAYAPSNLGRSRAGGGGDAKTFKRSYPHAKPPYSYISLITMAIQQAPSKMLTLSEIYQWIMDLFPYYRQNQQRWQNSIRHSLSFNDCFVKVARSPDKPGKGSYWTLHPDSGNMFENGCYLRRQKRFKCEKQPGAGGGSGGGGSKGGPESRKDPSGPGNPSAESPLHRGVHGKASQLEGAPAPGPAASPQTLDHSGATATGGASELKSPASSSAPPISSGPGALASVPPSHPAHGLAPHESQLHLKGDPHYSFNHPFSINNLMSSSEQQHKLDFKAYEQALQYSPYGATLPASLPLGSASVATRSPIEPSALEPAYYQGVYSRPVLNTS
Method: EMSA with sequencing
Form: double-stranded DNA, one strand shown
Medium: in vitro
Tested at: 10 and 20 nM
Notes: whole designed probe, mean of two concentrations, ends assumed
Reference: negative control set to 0
Direction: higher = stronger binding
Quantity: normalised bound fraction
Constant ends, left off below: GTGAGCGGTGCCCATTGATGGGGAAC … TTTCACTGGGATCGTGGGGAC
GGATTTTTGTTTTATCTGATTACAAAATAATACATGTTCATTAAAACACTTTAGAAGTCCCATCATGCAAGATTACTACTAAAAACCAAGATAAAATTACTTTTATTTAAATATGTACAGTGTTTTACAAAATTGGGATGAATCATGATGTGCATGTATAATTTTGAATCCTCCTTTGGTCACTTAATGTCAG: 0.0427 ratio
GGATTCTTTCATTATACAAATACATGTTATTTTTGAATTTCAGAAGAAATAATGATATGTCAATCTATTGAGTGCTAACTAAAAGTTCTCTTTGTTTACTTAGCTTTCTCTTAGTTGTAAGAAAGAAAAAGACTTCTTGCATGAAAATAGTACGTTGCGGGAAGAAATTGCCATGCTAAGACTGGAGCTAGAC: 0.489 ratio
TCGGCCAGCCTGGCTTCTGCGCCCCGCCAGGAGGTCGCGGAGCGGAGCGCGGCCAGGAAGTGAGCTGAGAGTGACAGCTCCCCCCACGCTGTTTGTTTATTCTCATGACTCATTCTCCACACACTGGCTCTTCTTTCTTTCGGGAGGAGGGGAGAAAGGAGCGGGAGGGCGGGCGGGCAGGGGAGAGGCAGGC: 0.285 ratio
GCCAGGGCTGGAAGAAGCCAGCTAGAGCCTCACAGTGACTCAGATGCCACACTCCAATTGCACTGTAGTCAGCCCACTTGTGTCATAAAGCCTGTTTACACAAAGCCTAGCATATTAGAAGCAGCTGTGAGTCAGCCTGCTTCAGCTGCTGCTGCTGCCCCAAGAGGCCCATCTCTCCCTGTGATACTTTGGT: 0.314 ratio
CTGCACCACTCAGCCCCTCCTAGTCCGCTGGAGAAAGTGGCTGAGGGGGTGGTGGGGGATAATTGCATTTCCAAAGTCCGGGCAATCAGCCAATGTAAACAGGCACCTGCGTCACTGTGTGGGCTCTCTAGGCAACAGGTAAAATACATCAAATACACACAATTTCCTGACATTCCAATGCATTTCTGCGTGA: 0.26 ratio
AGATGTAAAACAAAATGGATGTAGACAGCCGATTGTAGACGTAAAGCAAAATGGGTGTAGACAGCTAATTGACTCAACCATACTCTGGGCATGAAATTACTCAATGCTACAATGGGCTGAGTCATGCTCGAGGTGCTGGAGAGATTTCTGCCAAGAAAAGAGAGAAAAACCCCTGTCCTCCCACATCTGACGC: -0.0398 ratio
TCCGGTTGGGAGCTTCTTCACTAAATGAGAGAATGTTTGAAATATCAAATAGAGTACAATAGTACATAGCATATCCTAAATGATAGGGTACAAAGTAATCTAGTTAAAAGTAAATGTGTAGCTCTAGGATCAAGCCAAACAAAGCTATTTAAAACCTAAACTTAAAATGAAGGGGATGAATTAGTCTAGATCT: 0.103 ratio
TGTGAGCCACTGCACCCAGCCAAGTGGTTTGTTTATATTCAAGAGTGAGGCACTAAAATGCTAATTGGAAGCTTTGTGTACATGGGTTGGGCTTATTGACTTATATGACTCCTCACAGTGAAACAGGTCAATGGTCAATGGTCTCATTGTCTGAAGTGTTATCTGAGTTCATTGTCTCATGACCAAGAAAATT: 0.321 ratio

A few entries again (set 2):
UCUGAAUUAAAAUUUGAAACUCUGACCACACUCAGUACCCUACUGUCCCUAUAACUGGGGUUAUCUGACCAUCCAUCUCCCUUCUUUGUUCUGCUUUCUGUUCGGGGUGC: 0.765
AGAAGAGGGUUUCCACGAGCGGGAGGGUCGUCCGUACUGCCGGCGGGACUUCCUGCAGCUGUUCGCCCCACGCUGCCAGGGCUGCCAAGGCCCUAUUUUGGAUAACUACA: 0.398
AGGGUUCAUCUUUGCUUUAAUUUUGGCAAAAUGUUAAGCAUUUAUUUUGAGCUAAAAAUAAAAGUUAAUUUCAUACUAUAUAGAUUUUCUUUUUUAUCUUGUAUGUCCCC: 0.561
CUGGGCCCUUGAGAGGGGCUCUGUGGCUGCAGAGCUGUUUUUACCCUGACAACUGGGUUUGUCCUCCCUACUCCCACCCCAAGUGGUCAAUAAGUCUUAUUUGCAAAAGC: 0.63
CACUGCAACCUCUGCCUCCUGGGUUCAAGUGAUUCUCCAGCCUCAGCCUCCCGAGUAGCUGGGAUUAUGGGCGCCCACCACCAUGCCCAGCUAAUUUUUGUAUUUUUUUU: 1.01
